Published values gathered from unrelated publications.
Parts stem from different laboratories: compare values within a part only. Positions count from the first letter of the parent shown.
Chain of UniProt O15294 (whole entry, looked up): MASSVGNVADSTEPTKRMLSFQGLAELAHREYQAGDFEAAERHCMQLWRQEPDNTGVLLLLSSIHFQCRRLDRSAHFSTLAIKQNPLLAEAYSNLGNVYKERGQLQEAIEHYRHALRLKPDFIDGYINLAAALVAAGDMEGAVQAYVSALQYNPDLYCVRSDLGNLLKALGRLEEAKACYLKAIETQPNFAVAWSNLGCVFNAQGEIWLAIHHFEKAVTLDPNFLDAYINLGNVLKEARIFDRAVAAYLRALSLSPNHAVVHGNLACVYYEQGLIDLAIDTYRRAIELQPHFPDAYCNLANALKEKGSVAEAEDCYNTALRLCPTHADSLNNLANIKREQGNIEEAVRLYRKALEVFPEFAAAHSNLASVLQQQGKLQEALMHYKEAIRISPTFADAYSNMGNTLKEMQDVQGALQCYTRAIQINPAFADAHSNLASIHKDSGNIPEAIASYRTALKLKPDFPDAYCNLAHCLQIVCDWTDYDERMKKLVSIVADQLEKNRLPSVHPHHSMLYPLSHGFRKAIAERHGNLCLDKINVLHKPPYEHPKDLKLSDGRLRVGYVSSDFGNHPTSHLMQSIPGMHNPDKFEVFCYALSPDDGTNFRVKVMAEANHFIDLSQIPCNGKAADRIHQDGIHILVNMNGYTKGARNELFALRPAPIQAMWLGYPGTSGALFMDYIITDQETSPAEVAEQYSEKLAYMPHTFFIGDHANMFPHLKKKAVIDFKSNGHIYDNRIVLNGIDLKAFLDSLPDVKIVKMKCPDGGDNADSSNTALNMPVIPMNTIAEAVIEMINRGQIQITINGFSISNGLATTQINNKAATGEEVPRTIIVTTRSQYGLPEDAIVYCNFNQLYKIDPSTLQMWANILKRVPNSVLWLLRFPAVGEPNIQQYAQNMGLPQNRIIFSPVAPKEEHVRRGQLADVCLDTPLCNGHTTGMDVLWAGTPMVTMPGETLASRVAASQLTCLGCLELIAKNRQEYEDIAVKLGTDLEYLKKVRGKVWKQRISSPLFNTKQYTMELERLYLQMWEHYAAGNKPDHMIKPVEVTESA

Sample 1 — target: CRIPT, C-terminal peptide; technique: DHFR complementation, deep sequencing; sample: yeast; relative to: wild type; direction: higher = weaker binding
Setting: single substitutions, model-inferred values
Parent: ERBIN, PDZ domain 1 (human); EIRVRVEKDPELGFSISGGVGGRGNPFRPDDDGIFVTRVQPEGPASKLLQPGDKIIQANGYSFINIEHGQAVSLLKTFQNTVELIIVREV; partner TKNYKQTSV
| Change | binding free energy change [kcal/mol] |
| --- | --- |
| Q79Y | 0.187 |
| V82Y | 1.6 |
| K47D | 0.0858 |
| F63R | 0.564 |
| T77A | -0.0436 |
| T77D | 0.134 |
| L74N | 0.215 |
| E67V | 0.19 |

Sample 2 — technique: aptamer microarray, sandwich; molecule type: DNA with 2'F-ANA; sample: in vitro; tested at: 200 nM; added: Cy3 exosite-II aptamer, 400 nM; direction: higher = stronger binding; strand: GGTTGGTGTGGTTGG
Target: Prothrombin, mature alpha-thrombin (F2, Homo sapiens, UniProt P00734)
Setting: whole 15-mer aptamer, many near background
| Modification | mean fluorescence intensity [a.u.] |
| --- | --- |
| 2'F-ANA at 4 6 9 13 15 | 144 |
| 2'F-ANA at 1 3 4 5 6 10 11 13 15 | 50.1 |
| 2'F-ANA at 1 3 4 11 | 209 |
| 2'F-ANA at 2 6 7 8 9 10 11 13 | 150 |
| 2'F-ANA at 4 7 9 10 12 | 130 |
| 2'F-ANA at 1 5 7 8 | 61.7 |
| 2'F-ANA at 2 4 6 9 12 13 14 | 80.7 |
| 2'F-ANA at 4 5 7 8 13 | 49.8 |

Sample 3 — Change: R74G; technique: DHFR PCA, deep sequencing; sample: yeast; relative to: wild-type fitted maximum; direction: higher = stronger binding
Target: ABI1, truncated, D143A, DHFR fusion (Arabidopsis thaliana)
Setting: methotrexate growth selection, single substitutions
Parent: PYL1, truncated, DHFR fusion (Arabidopsis thaliana); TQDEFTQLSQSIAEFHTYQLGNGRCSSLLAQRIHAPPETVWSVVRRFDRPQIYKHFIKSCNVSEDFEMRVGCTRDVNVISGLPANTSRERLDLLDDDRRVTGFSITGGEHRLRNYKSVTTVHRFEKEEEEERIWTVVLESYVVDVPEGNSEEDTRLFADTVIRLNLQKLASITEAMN; partner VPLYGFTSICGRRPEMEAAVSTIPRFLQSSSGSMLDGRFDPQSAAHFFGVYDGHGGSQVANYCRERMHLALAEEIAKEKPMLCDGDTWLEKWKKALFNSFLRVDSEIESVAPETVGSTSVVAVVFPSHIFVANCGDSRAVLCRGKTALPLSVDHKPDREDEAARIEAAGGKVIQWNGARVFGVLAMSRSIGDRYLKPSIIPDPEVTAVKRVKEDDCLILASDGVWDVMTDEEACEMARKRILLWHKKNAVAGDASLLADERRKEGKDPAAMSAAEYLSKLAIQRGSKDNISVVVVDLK
| added | relative binding score [%] |
| --- | --- |
| (+)-ABA 17 µM | -1.11 |
| (+)-ABA 0.032 µM | 2.13 |
| (+)-ABA 0.39 µM | -4.74 |
| (+)-ABA 0.0091 µM | -2.2 |
| (+)-ABA 4.8 µM | -7.16 |
| (+)-ABA 1.4 µM | 4.11 |

Single results of other studies
| Sequence | target | observed | technique | molecule type | relative to | endpoint | result |
| --- | --- | --- | --- | --- | --- | --- | --- |
| SYRPQYFITYEKVSA | UDP-N-acetylglucosamine--peptide N-acetylglucosaminyltransferase 110 kDa subunit (OGT, Homo sapiens, UniProt O15294) | binding | phage display NGS | peptide | input library | minimum log2 enrichment ratio | 3.83 |

Repeated from above (sample 3):
| added | relative binding score [%] |
| --- | --- |
| (+)-ABA 0.032 µM | 2.13 |
| (+)-ABA 0.39 µM | -4.74 |
